{"data": "Measurements pooled from the literature", "note": "“And” joins repeats or separate records; there may be more than shown. ± marks the error that the study gave.", "UniProt P29320, sequence (whole entry, looked up)": "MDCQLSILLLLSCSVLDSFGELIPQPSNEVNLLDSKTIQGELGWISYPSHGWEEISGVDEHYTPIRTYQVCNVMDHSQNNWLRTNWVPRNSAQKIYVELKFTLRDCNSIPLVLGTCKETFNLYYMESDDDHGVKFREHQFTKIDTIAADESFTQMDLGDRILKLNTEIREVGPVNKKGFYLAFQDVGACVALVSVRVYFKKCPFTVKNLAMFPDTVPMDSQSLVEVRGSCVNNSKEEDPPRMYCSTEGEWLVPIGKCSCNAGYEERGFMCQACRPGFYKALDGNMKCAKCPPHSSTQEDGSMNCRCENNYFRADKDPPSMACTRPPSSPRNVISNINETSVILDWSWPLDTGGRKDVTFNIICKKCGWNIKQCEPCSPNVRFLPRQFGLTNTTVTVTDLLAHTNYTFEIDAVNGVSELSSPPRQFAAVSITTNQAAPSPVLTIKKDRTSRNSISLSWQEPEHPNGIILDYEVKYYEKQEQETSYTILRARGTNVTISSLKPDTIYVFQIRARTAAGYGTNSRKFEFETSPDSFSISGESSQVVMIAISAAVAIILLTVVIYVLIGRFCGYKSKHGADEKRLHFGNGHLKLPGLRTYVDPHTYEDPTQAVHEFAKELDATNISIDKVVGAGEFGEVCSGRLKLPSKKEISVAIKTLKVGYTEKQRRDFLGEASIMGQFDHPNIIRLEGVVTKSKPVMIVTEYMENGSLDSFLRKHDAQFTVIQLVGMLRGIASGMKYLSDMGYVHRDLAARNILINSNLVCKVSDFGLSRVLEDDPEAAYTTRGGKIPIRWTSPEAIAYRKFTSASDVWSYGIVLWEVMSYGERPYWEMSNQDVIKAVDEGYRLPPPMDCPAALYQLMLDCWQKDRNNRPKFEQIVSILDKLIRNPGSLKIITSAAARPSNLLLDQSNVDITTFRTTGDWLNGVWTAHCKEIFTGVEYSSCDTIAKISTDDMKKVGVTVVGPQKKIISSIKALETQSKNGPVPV"}
{"SMILES": "Cc1cc(C(=O)NC(C)(C)COc2cccc3c2C(N)=NS(=O)(=O)N3)cc(C)n1", "target or system": "Escherichia coli", "assay": "Ames test, initial", "test system": "WP2 uvrA", "setting": "1500 µg/plate", "scale": "relative to: solvent control", "measurement": "revertant ratio", "value": 1.2}
{"SMILES": "C[C@]1(CO)Cc2ncn(-c3ccc(C#N)c(Cl)c3)c2C(=O)O1", "test system": "Japanese subjects", "setting": "3 mg single dose", "measurement": "drug-related Acne incidence", "value": "0%"}
{"SMILES": "CC(C)C[C@H](NC(=O)[C@H](Cc1c[nH]cn1)NC(=O)[C@H](Cc1c[nH]cn1)NC(=O)[C@H](Cc1ccc(O)cc1)NC(=O)[C@@H](N)CS)C(=O)N[C@H](C(=O)N[C@@H](CC(C)C)C(=O)N[C@H](C(=O)N[C@H](C(=O)NCC(=O)NCC(=O)N[C@@H](CO)C(=O)O)C(C)C)[C@@H](C)O)C(C)C", "target or system": "Epstein-Barr virus", "test system": "B-NDG humanized mouse, EBV-infected", "setting": "20 mg/kg, day 14", "measurement": "body weight", "value": "20.1 g and 21.5 g"}
{"SMILES": "C[C@H]1CN(c2n[nH]c3nc(N[C@H]4CC[C@H](NS(=O)(=O)CCC(F)(F)F)CC4)ncc23)CCO1", "target or system": "EPHA3 (Homo sapiens, UniProt P29320)", "assay": "inhibitor, Kinobeads competition profiling", "setting": "0.032 µM", "scale": "relative to: vehicle", "measurement": "relative abundance", "value": 0.99}
{"SMILES": "CO[C@H]1C[C@@H]2CC[C@@H](C)[C@@](O)(O2)C(=O)C(=O)N2CCCC[C@H]2C(=O)O[C@H]([C@H](C)C[C@@H]2CC[C@@H](OC(=O)NCCOCCOCCOCCOCCOCCOCCOCCOCCC(=O)N3CCc4cc(Cn5nc(-c6ccc7oc(N)nc7c6)c6c(N)ncnc65)ccc4C3)[C@H](OC)C2)C[C@@H](O)[C@H](C)/C=C(\\C)[C@@H](O)[C@@H](OC)C(=O)[C@H](C)C[C@H](C)/C=C/C=C/C=C/1C", "assay": "phase 1 dose escalation, refers to: rash", "test system": "advanced solid tumour patients", "setting": "intravenous, 8 mg weekly, grade ≥3", "measurement": "TRAE incidence", "value": "6.3%"}
{"SMILES": "CC(C)N(C)N=O", "target or system": "Escherichia coli", "assay": "mutagenicity, Ames plate incorporation", "test system": "WP2 uvrA pKM101", "setting": "5000 µg/plate, 3 d, without S9, methanol", "measurement": "revertant colonies per plate", "value": "165 ± 3"}
{"SMILES": "O=[N+]([O-])c1ccc(N2CCC(NCCC(O)c3ccc(F)c4ccccc34)CC2)c(C(F)(F)F)c1 (stereo not drawn)", "target or system": "Salmonella typhimurium", "assay": "SOS/umu test", "test system": "TA1535/pSK1002, TGA medium", "setting": "1.53e-05 mg/mL, 4 h, without S9", "measurement": "survival", "value": "105%"}
{"SMILES": "CC[C@H](C)[C@H](NC(=O)[C@H](Cc1ccccc1)NC(=O)[C@H](CCC(=O)O)NC(=O)[C@H](CCCNC(=N)N)NC(=O)[C@H](C)NC(=O)[C@H](C)NC(=O)[C@H](CCC(N)=O)NC(=O)[C@H](CCC(=O)O)NC(=O)[C@H](CCC(=O)O)NC(=O)[C@H](CC(C)C)NC(=O)[C@H](Cc1ccc(O)cc1)NC(=O)[C@H](CO)NC(=O)[C@H](CO)NC(=O)[C@@H](NC(=O)[C@H](CC(=O)O)NC(=O)[C@H](CO)NC(=O)[C@@H](NC(=O)[C@H](Cc1ccccc1)NC(=O)[C@@H](NC(=O)CNC(=O)[C@H](CCC(=O)O)NC(=O)[C@H](C)NC(=O)CCc1c[nH]cn1)[C@@H](C)O)[C@@H](C)O)C(C)C)C(=O)N[C@@H](C)C(=O)N[C@@H](Cc1c[nH]c2ccccc12)C(=O)N[C@@H](CC(C)C)C(=O)N[C@H](C(=O)N[C@@H](CCCNC(=N)N)C(=O)NCC(=O)N[C@@H](CCCNC(=N)N)C(=O)N[C@@H](CCCCNC(=O)COCCOCCNC(=O)COCCOCCNC(=O)CC[C@H](NC(=O)CCCCCCCCCCCCCCCCC(=O)O)C(=O)O)C(=O)NCC(=O)NCC(=O)N[C@@H](CO)C(=O)N[C@@H](CCCCNc1c(NCCCCCN(O)C(=O)CCC(=O)NCCCCCN(O)C(=O)CCC(=O)NCCCCCN(O)C(C)=O)c(=O)c1=O)C(=O)O)C(C)C [zirconium-89 labelled]", "test system": "rat, colon", "setting": "iv, 3 nmol/kg, 24 h, ex vivo", "measurement": "tissue uptake", "value": "0.26 %ID/g"}
{"SMILES": "COCCN(CCOC)N=O", "target or system": "Escherichia coli", "assay": "mutagenicity, Ames plate incorporation", "test system": "WP2 uvrA pKM101", "setting": "1500 µg/plate, 3 d, without S9, methanol", "measurement": "revertant colonies per plate", "value": "140 ± 3"}
{"SMILES": "CC(=O)N1CCC(C(=O)N2CCN3C(=O)c4cc(-c5ccccc5)ccc4NC(=O)C3C2)CC1 (stereo not drawn)", "target or system": "Salmonella typhimurium", "test system": "TA1537", "setting": "1581 µg/plate, with: rat liver S9", "scale": "relative to: vehicle", "measurement": "fold increase in revertants", "value": 1.7}
{"SMILES": "Cc1c(Cl)c(=O)oc2cc(OCCCC[Se]C#N)ccc12", "target or system": "Caenorhabditis elegans", "test system": "N2 Bristol, NGM with E. coli OP50", "setting": "1 µM, 24 h", "measurement": "embryonic lethality", "value": "1.15%"}
{"SMILES": "O=[N+]([O-])c1ccc(N2CCN(CCC(O)c3ccc(F)cc3)CC2)c(C(F)(F)F)c1 (stereo not drawn)", "target or system": "Salmonella typhimurium", "assay": "SOS/umu test", "test system": "TA1535/pSK1002, TGA medium", "setting": "0.000488 mg/mL, 4 h, with: 10% rat liver S9", "measurement": "survival", "value": "128%"}
{"SMILES": "COc1cc2c(Oc3ccc4[nH]c(C)cc4c3F)ccnc2cc1OCC1(N)CC1", "test system": "paediatric recurrent refractory sarcoma", "setting": "concentration not given, whole group", "measurement": "grade 1 or 2 Anorexia", "value": "14.7%"}
{"SMILES": "COc1cccc(-c2n[nH]c(SCc3ccccn3)n2)c1OC", "target or system": "Salmonella typhimurium", "assay": "Ames test, plate incorporation", "test system": "TA1535", "setting": "0.13 mg/plate, without S9", "measurement": "revertant colonies per plate", "value": 13}
{"SMILES": "O=NN1CCN(C2CCCC2)CC1", "target or system": "Escherichia coli", "assay": "mutagenicity, Ames plate incorporation", "test system": "WP2 uvrA pKM101", "setting": "1500 µg/plate, 3 d, without S9, methanol", "measurement": "revertant colonies per plate", "value": "103 ± 3"}
{"SMILES": "CC[C@H](C)[C@@H]1NC(=O)[C@@H]2CCCN2C(=O)[C@H](CC(C)C)NC(=O)[C@H](CC(C)C)NC(=O)CNC(=O)[C@@H](NC(=O)[C@@H](NC(=O)[C@H](CC(=O)O)NC(=O)CNC(=O)[C@@H](NC(=O)[C@H](C)NC(=O)CNC(=O)[C@H](CCCCN)NC(=O)[C@H](CC(C)C)NC(=O)[C@H](CC(C)C)NC(=O)[C@H](CCCCN)NC(=O)CNC(=O)[C@@H](NC(=O)[C@@H](N)CC(C)C)C(C)C)C(C)C)C(C)C)CSSC[C@@H](C(=O)O)NC1=O", "assay": "RNA-seq, refers to: Rac2", "test system": "mouse, traumatic brain injury model, frontal cortex and hippocampus", "setting": "dose not given", "scale": "relative to: TBI alone", "measurement": "log2 fold change", "value": -2.42}
{"SMILES": "CN(CC(C)(C)C)N=O", "target or system": "Escherichia coli", "assay": "plate incorporation", "test system": "WP2uvrA pKM101, methanol", "setting": "2500 µg/plate, without S9", "measurement": "revertant colonies per plate", "value": "126 and 151"}
{"SMILES": "OC(CCN1CC=C(c2ccc(F)cc2)CC1)c1ccc(F)c2ccccc12 (stereo not drawn)", "target or system": "Salmonella typhimurium", "assay": "SOS/umu test", "test system": "TA1535/pSK1002", "setting": "0.001 mg/mL, 4 h, without S9, lower range", "measurement": "survival", "value": "118%"}
